Measurements gathered from unrelated publications.
Protocols differ between the studies behind these lines. “And” joins repeats or separate records; there may be more than shown. ± marks the error that the study gave. ≈ marks a conversion by molar mass, not a printed value.
Organism: Staphylococcus aureus

Compound	test	system	setting	how to read	endpoint	value
CC(C)C[C@H](NC(=O)[C@H](CCN)NC(=O)[C@H](CCN)NC(=O)[C@@H](Cc1ccccc1)NC(=O)[C@H](CC(C)C)NC(=O)[C@H](CCN)NC(=O)[C@H](CCN)NC(=O)[C@@H](CCN)NC(=O)[C@@H](N)CS)C(N)=O	–	ATCC 6538	24 h, 37 °C	–	MBC	128 µM (≈ 127 µg/mL)
CC[C@H](C)[C@@H]1NC(=O)[C@@H](CCCNC(=N)N)NC(=O)[C@@H](NC(=O)[C@@H](CC(C)C)NC(=O)[C@H](C)NC(=O)[C@H](C)NC(=O)[C@@H]2CCCN2C(=O)[C@@H](CC(C)C)NC(=O)[C@@H](NC(=O)[C@@H](CCCNC(=N)N)NC(=O)[C@@H](CC(C)C)NC(=O)[C@@H](CC(C)C)NC(=O)[C@@H](NC(=O)[C@@H](CCCNC(=N)N)NC(=O)[C@@H](CC(C)C)NC(=O)[C@@H](NC(=O)[C@@H](NC(=O)CNC(=O)[C@@H](CC(C)C)NC(=O)[C@@H](N)Cc2ccccc2)[C@@H](C)O)C(C)C)C(C)C)C(C)C)CSSC[C@@H](C(=O)O)NC(=O)[C@@H](CCCNC(=N)N)NC(=O)[C@@H](CCCNC(=N)N)NC(=O)[C@H](Cc2ccccc2)NC1=O	–	MRSA NCTC 12493, Galleria mellonella larvae	16 mg/kg, titanium implant biofilm infection	–	survival rate	70%
C[C@@H](N)[C@H](O)CCCCCCCC(=O)CCCCCCCCCCCCCC[C@@H](O[C@@H]1O[C@H](CO)[C@H](O)[C@H](O)[C@H]1O)[C@H](N)CO	microbial growth, resazurin	ATCC12600	50 µM	–	inhibition	98%
CCCNC(=O)[C@@H]1Cc2ccc(O)c(c2)-c2cc(ccc2O)C[C@H](NC(=O)[C@H](NC(=O)[C@H](NC(=O)[C@H](CC(N)=O)NC(=O)[C@@H](Cc2ccc(O)cc2)NC(=O)[C@@H](CC(C)C)NC)c2ccccc2)c2ccc(O)cc2)C(=O)N1	bacterial growth	–	–	–	IC50	> 40 µM
O=c1c(O)ccc(Br)cc1O	microbial growth, broth dilution	ATCC29213	–	–	MIC80	17.6 µM (≈ 3.82 µg/mL)
CC(C)[C@H]1NC(=O)[C@H](Cc2ccccc2)NC(=O)[C@@H](C(C)C)NC(=O)[C@@H](C)NC(=O)[C@H](CO)NC(=O)[C@@H](Cc2c(-c3ccc(-c4ccc(-c5ccccc5)cc4)cc3)[nH]c3ccccc23)NC(=O)[C@@H](CO)NC1=O	broth dilution	–	–	–	MIC90	> 50 µM
CC1COC2=C1C(=O)C(=O)c1c2ccc2c1C(OC(=O)CNC(=O)C(N)CCC(=O)O)CCC2(C)C (mixture of isomers)	–	–	10 µmol/mL, 48 h, 10 µL on 6 mm disc	–	inhibition zone diameter	23.7 ± 1 mm
CCc1ccn2c(C(=O)NCc3ccccc3)c(C)nc2c1	microbial growth	SG511	2 mM, 20 h	–	inhibition zone	0 mm
CC1CCN(C(=O)c2cccc(NC(=O)Nc3ccc(Cl)cc3)c2)CC1	checkerboard	CRB, PBP4 overexpressor	25 µM, with: ceftobiprole	reference: ceftobiprole alone over combination	MIC fold reduction	16 and > 8
Cc1ccc(-c2nc3ccc(C)cn3c2C(=O)C(=O)NCc2ccc(N(C)C)cc2)cc1	microbial growth	SG511	2 mM, 20 h	–	inhibition zone	0 mm
N=C(N)NCCC[C@H](NC(=O)[C@H](CCCNC(=N)N)NC(=O)[C@H](CCCNC(=N)N)NC(=O)[C@H](CCC(N)=O)NC(=O)[C@H](CCCNC(=N)N)NC(=O)[C@H](CCCNC(=N)N)NC(=O)[C@H](CCCCN)NC(=O)[C@H](CCCCN)NC(=O)[C@H](CCCNC(=N)N)NC(=O)CNC(=O)[C@H](Cc1ccc(O)cc1)NC(=O)[C@H](Cc1ccccc1)NC(=O)[C@H](Cc1ccccc1)NC(=O)[C@H](Cc1ccccc1)NC(=O)OCC1c2ccccc2-c2ccccc21)C(=O)O	–	29213	1, 2, 4 × MIC, 0.5 h, 37 °C	–	intracellular ATP level	decreased
CC[C@H](C)[C@@H]1NC(=O)[C@H](CO)NC(=O)[C@H](CCCCN)NC(=O)[C@@H]2CSSC[C@@H](C(=O)N[C@@H](Cc3ccc(O)cc3)C(N)=O)NC(=O)[C@H](CCCCN)NC(=O)[C@@H]3CSSC[C@H](NC(=O)[C@H](CCCNC(=N)N)NC(=O)[C@H](CC(C)C)NC(=O)[C@H](CC(=O)O)NC(=O)[C@H](CC(=O)O)NC(=O)[C@H](CCC(=O)O)NC(=O)[C@H](CC(N)=O)NC(=O)[C@H](Cc4c[nH]c5ccccc45)NC(=O)[C@@H]4CCCN4C(=O)CNC(=O)[C@H](CC(N)=O)NC(=O)[C@@H](NC(=O)CNC(=O)[C@H](Cc4ccccc4)NC(=O)CN)CSSC[C@H](NC(=O)[C@H](Cc4ccc(O)cc4)NC(=O)CNC(=O)CNC(=O)[C@H](CCCCN)NC(=O)[C@H](Cc4ccc(O)cc4)NC(=O)CNC(=O)[C@H](CCCCN)NC1=O)C(=O)N[C@@H](C)C(=O)N[C@@H](CCCCN)C(=O)NCC(=O)NCC(=O)N[C@@H](Cc1ccccc1)C(=O)N[C@@H](C(C)C)C(=O)N3)C(=O)N[C@@H](Cc1c[nH]cn1)C(=O)N[C@@H](CC(N)=O)C(=O)N[C@@H](Cc1c[nH]cn1)C(=O)N2	–	473	24 h, 37 °C, 99.9% killing	–	MBC	0.5 µM (≈ 2.21 µg/mL)
COc1cc(OC)cc(B(O)O)c1	crystal violet	USA300 wild type	50 µM	reference: wild type untreated	biofilm formation	25% and 26.1% and 20.3%

A few entries again:
Compound	test	system	setting	how to read	endpoint	value
CC[C@H](C)[C@@H]1NC(=O)[C@@H](CCCNC(=N)N)NC(=O)[C@@H](NC(=O)[C@@H](CC(C)C)NC(=O)[C@H](C)NC(=O)[C@H](C)NC(=O)[C@@H]2CCCN2C(=O)[C@@H](CC(C)C)NC(=O)[C@@H](NC(=O)[C@@H](CCCNC(=N)N)NC(=O)[C@@H](CC(C)C)NC(=O)[C@@H](CC(C)C)NC(=O)[C@@H](NC(=O)[C@@H](CCCNC(=N)N)NC(=O)[C@@H](CC(C)C)NC(=O)[C@@H](NC(=O)[C@@H](NC(=O)CNC(=O)[C@@H](CC(C)C)NC(=O)[C@@H](N)Cc2ccccc2)[C@@H](C)O)C(C)C)C(C)C)C(C)C)CSSC[C@@H](C(=O)O)NC(=O)[C@@H](CCCNC(=N)N)NC(=O)[C@@H](CCCNC(=N)N)NC(=O)[C@H](Cc2ccccc2)NC1=O	–	MRSA NCTC 12493, Galleria mellonella larvae	16 mg/kg, titanium implant biofilm infection	–	survival rate	70%
